Measurements pooled from the literature.
A part holds a random share of what one study measured.

Sample 1
Target: Histone acetyltransferase KAT6A, winged helix 1, GST fusion (KAT6A, Homo sapiens, UniProt Q92794, residues 1-85)
Method: protein binding microarray
Form: double-stranded DNA, one strand shown
Sample: in vitro
Concentration: not given
Setting: 8-mer, flanks averaged, mean of 2 arrays, mostly near background
Baseline: not given
Reading: higher = stronger binding
Measurement: E-score
Construct (chain): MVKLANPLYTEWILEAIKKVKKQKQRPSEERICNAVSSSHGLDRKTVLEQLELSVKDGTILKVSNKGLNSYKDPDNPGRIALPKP
ATCATAAC: -0.0338
AGTGGTAC: -0.137
ACTGTAAT: -0.0503
AGATATCC: -0.0258
ACGTTAGC: 0.0843
ATTCATAC: 0.016
GAACCCTC: -0.0673
CCCATAGC: -0.0378
ATGGGGTG: -0.0322
AGACAGAA: -0.23
AATTACCC: 0.0342
CCAGTCCC: -0.141

Sample 2
Target: Fragile X messenger ribonucleoprotein 1, C-terminal low-complexity region (Fmr1, Mus musculus, UniProt P35922)
Method: RNA Bind-n-Seq
Form: RNA
Sample: in vitro
Concentration: 200 nM
Setting: whole 134-nt RNA, ends assumed
Together with: 150 mM KCl
Baseline: input library
Reading: higher = stronger binding
Measurement: log2 enrichment
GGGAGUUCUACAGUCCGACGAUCAAGUCCUGUGCUACACAUCGUAUGUACCGAAUCGGGGAAAGGGGAGGGGUUUGGGGAAAGUAUUAUGUUACGCCGUUCGGAUCUGCACUUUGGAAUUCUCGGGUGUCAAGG: 0.613
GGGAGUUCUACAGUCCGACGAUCCAAGUCCUGUGCUACACAUCGUAUGUACCGAAUCGGAAAGGAAAAAAAGGAAAGGAAAGUAUUAUGUUACGCCGUUCGGAUCUGCACUUCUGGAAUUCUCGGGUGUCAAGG: -0.819
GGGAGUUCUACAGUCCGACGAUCUCCUGUGCUACACAUCGUAUGUACCGAAUCGGGGCCCCCGGGGCCCCCGGGGCCCCCGGAAAGUAUUAUGUUACGCCGUUCGGAUCUGCAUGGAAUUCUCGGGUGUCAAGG: -0.0567
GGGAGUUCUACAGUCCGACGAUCCUGUGCUACACAUCGUAUGUACCGAAUCGGGGCCCCCCGGGGCCCCCCGGGCCCCCCGGGGAAAGUAUUAUGUUACGCCGUUCGGAUCUGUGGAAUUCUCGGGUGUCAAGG: -1.36
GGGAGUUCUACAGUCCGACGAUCCCUGUGCUACACAUCGUAUGUACCGAAUCAAACCCCCAAAUUUUUUUAAAUUUUUUUAAAAAAGUAUUAUGUUACGCCGUUCGGAUCUGCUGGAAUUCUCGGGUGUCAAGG: 0.131
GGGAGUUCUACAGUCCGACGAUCCUGUGCUACACAUCGUAUGUACCGAAUCGGGGUUUGGGGUUUUUUUGGGGAAAAAAAGGGGAAAGUAUUAUGUUACGCCGUUCGGAUCUGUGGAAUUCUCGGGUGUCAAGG: 0.0531
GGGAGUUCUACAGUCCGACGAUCACCAUGCAGGUGGGCAUCUUUGGGAAGUGGGGCAAGGGGGGGAUAGGGAGGGGGGUAACACUUUGGGAACAGGUGGUCCCAGGUCGUGUCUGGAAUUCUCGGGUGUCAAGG: 0.701
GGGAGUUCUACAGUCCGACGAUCCACAGACAACACGCACCCACACAGACACAGAGGGAAGGAGUUGGGAUGGGGACAGGGUGCACAGCAGGGCGGGGUAGGACCCCAGCCCCUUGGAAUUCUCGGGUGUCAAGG: 1.17

Sample 3
Target: Sal-like protein 4, full length isoform A (SALL4, Homo sapiens, UniProt Q9UJQ4, residues 1-1053)
Chain of UniProt Q9UJQ4 (whole entry, looked up): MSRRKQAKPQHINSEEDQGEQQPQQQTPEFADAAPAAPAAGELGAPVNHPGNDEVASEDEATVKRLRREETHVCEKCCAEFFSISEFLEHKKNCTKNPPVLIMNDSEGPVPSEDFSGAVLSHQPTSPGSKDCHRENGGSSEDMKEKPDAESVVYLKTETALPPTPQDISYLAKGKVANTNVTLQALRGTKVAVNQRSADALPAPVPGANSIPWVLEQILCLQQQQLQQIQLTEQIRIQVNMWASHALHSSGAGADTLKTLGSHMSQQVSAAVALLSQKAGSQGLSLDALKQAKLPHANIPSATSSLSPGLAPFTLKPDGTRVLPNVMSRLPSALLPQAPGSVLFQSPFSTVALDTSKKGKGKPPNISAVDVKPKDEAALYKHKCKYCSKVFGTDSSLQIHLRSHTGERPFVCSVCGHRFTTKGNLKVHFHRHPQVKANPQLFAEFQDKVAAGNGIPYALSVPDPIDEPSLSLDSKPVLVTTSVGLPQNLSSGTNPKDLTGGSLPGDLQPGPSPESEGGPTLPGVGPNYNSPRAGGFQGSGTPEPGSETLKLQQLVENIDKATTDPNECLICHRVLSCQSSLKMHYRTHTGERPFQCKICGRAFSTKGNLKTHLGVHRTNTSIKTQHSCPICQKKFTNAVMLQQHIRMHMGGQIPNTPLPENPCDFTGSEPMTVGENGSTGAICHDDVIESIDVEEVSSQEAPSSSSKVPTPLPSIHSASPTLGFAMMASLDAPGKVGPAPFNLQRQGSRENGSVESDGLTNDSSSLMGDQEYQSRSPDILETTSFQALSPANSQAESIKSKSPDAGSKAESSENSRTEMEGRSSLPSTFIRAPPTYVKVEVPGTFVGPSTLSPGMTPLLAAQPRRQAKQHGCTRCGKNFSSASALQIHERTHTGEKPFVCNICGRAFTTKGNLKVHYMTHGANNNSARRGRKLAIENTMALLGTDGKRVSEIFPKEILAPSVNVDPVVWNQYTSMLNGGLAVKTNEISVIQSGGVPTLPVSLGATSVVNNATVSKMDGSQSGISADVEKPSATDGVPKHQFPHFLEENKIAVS
Method: universal PBM
Form: double-stranded DNA, one strand shown
Sample: in vitro
Concentration: 600 nM
Setting: 8-mer, flanks averaged, mean of replicates
Reading: higher = stronger binding
Measurement: E-score
CCTTGACG: -0.248
ACACATCC: -0.143
GCTCAGTA: 0.0416
CCCATAGG: -0.147
GCGCGTTA: 0.008
ACACTAGC: -0.0975
CTAGGCTC: -0.264
GGGCGAAA: -0.00249
AGTTTCGA: -0.0264
GTGGTGTA: 0.114
AAATGAAA: 0.324

Single results of other studies
PhoQ, residues 284 288 289 292 302 303 SCKMEA
fold induction (PhoP, residues 12 14 15 18 19 TQALL (Escherichia coli, UniProt P23836); Sort-seq, refers to: YFP reporter; E. coli; PhoQ-PhoP variant library, together with: 10 µM Mg2+; baseline: high Mg2+ state, higher = stronger signaling): 7.2

Repeated from above (sample 3):
ACACTAGC: -0.0975
GCGCGTTA: 0.008
AAATGAAA: 0.324
